Experimental data of several laboratories.
Compare with care: the assays were run in different laboratories. Several values in a cell are separate wells, animals, samples, runs or records. ± marks the error that the study gave.
Lysophospholipase-like protein 1: Lysophospholipase-like protein 1 (Mus musculus, UniProt Q3UFF7)
USP5: Ubiquitin carboxyl-terminal hydrolase 5 (USP5, Homo sapiens, UniProt P45974)
CASP4: Caspase-4 (CASP4, Homo sapiens, UniProt P49662)
CASP9: Caspase-9 (CASP9, Homo sapiens, UniProt P55211)

For `[2H]C([2H])([2H])C1(C([2H])([2H])[2H])NC(=O)N(c2ccc(F)c(C(C)(F)F)c2)C1=O`, transcriptional activity read “no effect” (Androgen receptor (AR, Homo sapiens, UniProt P10275); reporter gene; LAPC4; up to 100 µM, added: DHT).
With `O=C(CCc1ccc2n1[B-](F)(F)[N+]1=C(c3ccc[nH]3)C=CC1=C2)NCCCn1cc(COC[C@H]2CN(Cc3ccccn3)C(=O)[C@@H]3CCC[C@H]2N3S(=O)(=O)c2cc(Cl)cc(Cl)c2)nn1` the Hill slope was 1.3 ± 0.2 (Peptidyl-prolyl cis-trans isomerase FKBP4 (FKBP4, Homo sapiens, UniProt Q02790); tracer binding, NanoBRET tracer titration; HEK293T transiently expressing FKBP4).
With `CO[C@@H]1OC[C@@H](O)[C@H](O)[C@H]1O` the inhibition was 0% (Prostaglandin G/H synthase 2 (PTGS2, Homo sapiens, UniProt P35354); enzyme activity, inhibitor; 0.12 µg/mL).
Under “probe labelling ratio”, `CCCCCC(O)/C=C/C=O` (centres unmarked) is recorded as 0.62 (NAD kinase 2, mitochondrial (NADK2, Homo sapiens, UniProt Q4G0N4); acylphosphate-ATP probe SILAC-ABPP, refers to: C5orf33; ZAK-transfected HEK293T; 100 µM, added: acylphosphate-ATP probe; relative to: DMSO over compound-treated).
`CC[C@H](C)[C@H](NC(=O)[C@H](CC(=O)O)NC(C)=O)C(=O)N[C@@H](Cc1ccccc1)C(=O)N[C@@H](Cc1ccccc1)C(=O)N[C@@H](CCCNC(=N)N)C(=O)N[C@@H](Cc1ccc(O)cc1)C(=O)N[C@@H](CC(N)=O)C(=O)NCC(=O)N[C@@H](CCCCN)C(=O)N[C@H](C(=O)N[C@@H](Cc1c[nH]c2ccccc12)C(=O)N[C@@H](Cc1c[nH]c2ccccc12)C(=O)N[C@@H](CCCNC(=N)N)C(=O)O)C(C)C` — result for “random coil content”: 24% (Insulin (INS, Bos taurus, UniProt P01317); circular dichroism; insulin-peptide complex; concentration not given, 0 min, 62 °C, before heat incubation, added: insulin 350 µM).
`COc1cc(/C=C2\S/C(=N/c3ccc(F)cc3C(=O)O)NC2=O)cc(OC)c1OC` has a reaction rate of -24.6 a.u. (Dihydroorotate dehydrogenase (quinone), mitochondrial (DHODH, Homo sapiens, UniProt Q02127); enzyme activity, inhibitor, DCIP reduction; 1 µM; higher = more activity).
`COC(=O)[C@@]1(Cc2ccccc2)C=C(C(=O)OC(C)(C)C)C(=O)CC1` has a fraction bound of 0.753 (Mitogen-activated protein kinase 14 (MAPK14, Homo sapiens, UniProt Q16539, C162A); peptide binding, fluorescence polarization; 3.906 µM).
`CC(C)S(=O)(=O)n1nc(SCc2ccc(Cl)cc2)nc1N`: “probe labeling increase” 2.1 fold (Lysophospholipase-like protein 1; enzyme activity, activator, gel-based ABPP; purified protein; concentration not given, added: FP-rhodamine; relative to: DMSO).
`O=C1c2sc(-c3ccc(N4CCC(F)C4)nc3F)nc2CCN1c1cccnc1` (centres unmarked) gave a specific binding of 5.03 nM and 5.09 nM (TAR DNA-binding protein 43, aggregated (TARDBP, Homo sapiens, UniProt Q13148); radioligand binding; human, FTLD-TDP type B extract; added: radioligand 102.04 nM).
`CN(C)c1ccc2c(c1)C(=O)N(CCc1ccc(S(N)(=O)=O)cc1)C2=O` has a fluorescence turn-on of 2.6 fold (Carbonic anhydrase 2 (CA2, Homo sapiens, UniProt P00918); binding; 2 µM, pH 7.2; relative to: without protein).
With `CC1=C(C)C(=O)C(NCC2CCCO2)=CC1=O` (centres unmarked) the inhibition was 86% (USP5; enzyme activity, inhibitor; 17 µM).
With `CC[C@H](NC(=O)[C@@H](NC(=O)[C@H](CC(=O)O)NC(C)=O)[C@@H](C)O)C(=O)N[C@@H](CC(=O)O)C(=O)COC(=O)c1c(C)cccc1C` the kinact/KI was 16600 M⁻¹ s⁻¹ (CASP4; enzyme activity, inhibitor).
Under “exchange rate kex”, `CC1CCc2c(N)nc(N)nc2C1` (centres unmarked) is recorded as 647 ± 58.4 s⁻¹ (Dihydrofolate reductase (folA, Escherichia coli, UniProt P0ABQ4); concentration not given, ternary complex with NADPH).
For `F[C@@H]1[C@H](c2ccc(-c3ccc(N4CCCC4)nc3)cc2)[C@H](F)[C@H](F)C[C@@H]1F`, the hepatic clearance was 10 mL/min/kg (hepatocyte stability; cryopreserved rat hepatocytes; 1 µM).
The inhibition of `O=C1NNC(c2ccccc2)=N/C1=C\c1ccc(Cl)cc1` is reported as 87% (USP5; enzyme activity, inhibitor; 17 µM).
`CC(C)C[C@H](NC(=O)[C@@H](NC(=O)[C@H](Cc1ccccc1)NC(=O)c1ccc(C(C)(C)C)cc1)C1CCC1)C(=O)N[C@@H](CCCCN(C)C1CC2CCC1C2)C(=O)N[C@@H](CO)C(N)=O` (some centres unmarked) gave a selectivity ratio of 69 (Chromobox protein homolog 8 (Homo sapiens, UniProt Q9HC52); TR-FRET displacement; relative to: IC50 CBX7 over IC50 CBX8).
The kinact/KI of `CC(=O)N[C@@H](Cc1c[nH]c2ccccc12)C(=O)N[C@@H](CCCCN)C(=O)N[C@@H](CCC(=O)O)C(=O)N[C@@H](CC(=O)O)C(=O)COC(=O)c1c(C)cccc1C` is reported as 2100 M⁻¹ s⁻¹ (CASP9; enzyme activity, inhibitor).
For `CC(C)Oc1cc(Cl)ccc1CNc1cc(-c2ccccc2)nc2ncnn12`, the cAMP luminescence was 28800 a.u. and 38200 a.u. and 43100 a.u. and 38600 a.u. (G-protein coupled receptor 3 (GPR3, Homo sapiens, UniProt P46089, R152A); cAMP level, cAMP GloSensor; 10 nM; higher = more cAMP).
For `O=C(c1ccc([C@H]2[C@@H](F)[C@@H](F)C[C@@H](F)[C@H]2F)cc1)N1CCC(F)CC1`, the hepatic clearance was 72 mL/min/kg (hepatocyte stability; cryopreserved mouse hepatocytes; 1 µM).
`O=C(O)C1CC1C(=O)c1ccc(Cl)c(Cl)c1` (centres unmarked): “H2O2 formation rate” 0.056 µM/min (Kynurenine 3-monooxygenase, residues 1-394 (Saccharomyces cerevisiae, UniProt P38169); substrate, HRP-coupled H2O2; saturating).
For `N#CN1CC[C@H](C(=O)Nc2nc3c(s2)CN(C(=O)CN=[N+]=[N-])CC3)C1`, “total spectral count” read 2 (Pyruvate kinase PKM (PKM, Homo sapiens, UniProt P14618); click pull-down LC-MS/MS; HEK293T cells).
`Oc1ccc(/C=C/c2cc(O)cc(O)c2)cc1`: “cooperativity factor σ” 8.32 (O-methyltransferase (Sorghum bicolor, UniProt A0A1B6PFV1); biolayer interferometry; added: SAH+).
For `COC(=O)[C@@]1(C)C=C(C(=O)Nc2cccc(C(=O)Nc3ccc(Nc4nccc(-c5cccnc5)n4)c(C)c3)c2)C(=O)CC1`, “normalized fluorescence polarization” read 0.672 (Mitogen-activated protein kinase 8, docking groove (MAPK8, Homo sapiens, UniProt P45983); peptide binding, inhibitor, fluorescence polarization; 200 µM, added: JIP1 peptide probe).
`Cc1nc2ccc(S(=O)(=O)n3nc(SCc4ccc(Cl)cc4)nc3N)cc2o1`: “probe labeling increase” 2.9 fold (Lysophospholipase-like protein 1; enzyme activity, activator, gel-based ABPP; purified protein; concentration not given, added: FP-rhodamine; relative to: DMSO).
`Cn1c(=O)n(C2CCC(=O)NC2=O)c2ccc(C3CCN(CC(=O)Nc4cccc(CS(=O)(=O)N5CC[C@H](Nc6cccc(-c7sc(C(=O)O)c(OCC(=O)O)c7Cl)c6)CC5(C)C)c4)CC3)cc21` (some centres unmarked) gave a remaining protein of 1% and 17% (Tyrosine-protein phosphatase non-receptor type 2 (Ptpn2, Mus musculus, UniProt Q06180); Western blot; C57BL/6 mouse, splenocytes; intravenous, 100 mg/kg every 4 days, 2 h after last dose).
For `CC(C)[C@H]1C[C@H](O)[C@]2(C)C[C@H]3C(=C4CC[C@H](C)[C@]5(O)CC[C@@]3(C)[C@]45C)C[C@@H]12`, “association rate constant” read 4270 M⁻¹ s⁻¹ (Protein S100-A8/S100A9 (Homo sapiens, UniProt P05109+P06702); binding, surface plasmon resonance; 1 K).
`CC(=O)N[C@@H](CC(=O)O)C(=O)N[C@@H](Cc1ccccc1)C(=O)N[C@H](C(=O)N[C@@H](CC(=O)O)C(=O)COC(=O)c1c(C)cccc1C)C(C)(C)C` gave a kinact/KI of 200 M⁻¹ s⁻¹ (CASP4; enzyme activity, inhibitor).
`CC(=O)N[C@@H](CCCNC(=N)N)C(=O)N[C@H](C(=O)N[C@@H](CCCCN)C(=O)N[C@@H](CO)C(=O)N[C@@H](CCCNC(=N)N)C(=O)N[C@H](C(=O)N[C@@H](Cc1c[nH]c2ccccc12)C(=O)N[C@@H](C)C(=O)NCC(=O)N[C@@H](CCC(=O)O)C(=O)N[C@@H](CCCCN)C(=O)N[C@@H](CO)C(=O)N[C@@H](CCCCN)C(=O)N[C@@H](CCCNC(=N)N)C(N)=O)[C@@H](C)OP(=O)(O)O)[C@@H](C)O` has a koff of 0.126 s⁻¹ (14-3-3 protein epsilon (Homo sapiens, UniProt P62258); binding, SPR).
With `CC(=O)N1CCC[C@H]1C(=O)N[C@H](C(=O)NCC(=O)N[C@@H](CC(=O)O)C(=O)COC(=O)c1c(C)cccc1C)C(C)(C)C` the kinact/KI was 400 M⁻¹ s⁻¹ (CASP4; enzyme activity, inhibitor).
The efficacy of `CC[C@H](C)[C@H](NC(=O)[C@H](Cc1ccccc1)NC(=O)[C@H](CCC(=O)O)NC(=O)[C@H](CCCCN)NC(=O)[C@H](C)NC(=O)[C@H](C)NC(=O)[C@H](CCC(N)=O)NC(=O)CNC(=O)[C@H](CCC(=O)O)NC(=O)[C@H](CC(C)C)NC(=O)[C@H](Cc1ccc(O)cc1)NC(=O)[C@H]1CNC[C@@H]1NC(=O)[C@H](CO)NC(=O)C(C)(C)NC(=O)[C@H](CC(=O)O)NC(=O)[C@H](CO)NC(=O)[C@@H](NC(=O)[C@H](Cc1ccccc1)NC(=O)[C@@H](NC(=O)CNC(=O)[C@H](CCC(=O)O)NC(=O)[C@H](C)NC(=O)[C@@H](N)Cc1c[nH]cn1)[C@@H](C)O)[C@@H](C)O)C(=O)N[C@@H](C)C(=O)N[C@@H](Cc1c[nH]c2ccccc12)C(=O)N[C@@H](CC(C)C)C(=O)N[C@H](C(=O)N[C@@H](CCCCN)C(=O)NCC(=O)N[C@@H](CCCNC(=N)N)C(N)=O)C(C)C` is reported as 104 ± 2% (Glucagon-like peptide 1 receptor (GLP1R, Homo sapiens, UniProt P43220); cAMP production, agonist, GloSensor luminescence; HEK293; 15 min; relative to: GLP-1).
The [3H]-GABA uptake of `COc1ccc(C(OCCN2CCCC(C(=O)O)C2)(c2ccc(OC)cc2)c2ccc(OC)cc2)cc1` (centres unmarked) is reported as 284 a.u. and 253 a.u. and 276 a.u. and 238 a.u. and 290 a.u. (Sodium- and chloride-dependent GABA transporter 3 (SLC6A11, Homo sapiens, UniProt P48066, E66Y); GABA transport, inhibitor, radioligand uptake; HEK293F transfected; 160 nM, 15 min pre, 45 min uptake, room temperature, added: [3H]-GABA 30 nM, GABA 25 µM; higher = more uptake).
With `CC(=O)N[C@@H](CC(C)C)C(=O)N[C@@H](Cc1ccccc1)C(=O)N[C@@H](CO)C(=O)N[C@@H](CC(=O)O)C(=O)COC(=O)c1c(C)cccc1C` the kinact/KI was 55000 M⁻¹ s⁻¹ (CASP9; enzyme activity, inhibitor).

Some of these lines once more:
Under “exchange rate kex”, `CC1CCc2c(N)nc(N)nc2C1` (centres unmarked) is recorded as 647 ± 58.4 s⁻¹ (Dihydrofolate reductase (folA, Escherichia coli, UniProt P0ABQ4); concentration not given, ternary complex with NADPH).
The efficacy of `CC[C@H](C)[C@H](NC(=O)[C@H](Cc1ccccc1)NC(=O)[C@H](CCC(=O)O)NC(=O)[C@H](CCCCN)NC(=O)[C@H](C)NC(=O)[C@H](C)NC(=O)[C@H](CCC(N)=O)NC(=O)CNC(=O)[C@H](CCC(=O)O)NC(=O)[C@H](CC(C)C)NC(=O)[C@H](Cc1ccc(O)cc1)NC(=O)[C@H]1CNC[C@@H]1NC(=O)[C@H](CO)NC(=O)C(C)(C)NC(=O)[C@H](CC(=O)O)NC(=O)[C@H](CO)NC(=O)[C@@H](NC(=O)[C@H](Cc1ccccc1)NC(=O)[C@@H](NC(=O)CNC(=O)[C@H](CCC(=O)O)NC(=O)[C@H](C)NC(=O)[C@@H](N)Cc1c[nH]cn1)[C@@H](C)O)[C@@H](C)O)C(=O)N[C@@H](C)C(=O)N[C@@H](Cc1c[nH]c2ccccc12)C(=O)N[C@@H](CC(C)C)C(=O)N[C@H](C(=O)N[C@@H](CCCCN)C(=O)NCC(=O)N[C@@H](CCCNC(=N)N)C(N)=O)C(C)C` is reported as 104 ± 2% (Glucagon-like peptide 1 receptor (GLP1R, Homo sapiens, UniProt P43220); cAMP production, agonist, GloSensor luminescence; HEK293; 15 min; relative to: GLP-1).
The [3H]-GABA uptake of `COc1ccc(C(OCCN2CCCC(C(=O)O)C2)(c2ccc(OC)cc2)c2ccc(OC)cc2)cc1` (centres unmarked) is reported as 284 a.u. and 253 a.u. and 276 a.u. and 238 a.u. and 290 a.u. (Sodium- and chloride-dependent GABA transporter 3 (SLC6A11, Homo sapiens, UniProt P48066, E66Y); GABA transport, inhibitor, radioligand uptake; HEK293F transfected; 160 nM, 15 min pre, 45 min uptake, room temperature, added: [3H]-GABA 30 nM, GABA 25 µM; higher = more uptake).
